Measured values pooled from the literature.
Protocols differ between the studies behind these lines. ± marks the error that the study gave.
PKG T618Q: cGMP-dependent protein kinase (PKG, Plasmodium falciparum, UniProt Q8I719, T618Q)
OPRL1: Nociceptin receptor (OPRL1, Homo sapiens, UniProt P41146)

By UniProt entry, the sequences of proteins in these tests, tags left out. Where a name states a change or a piece, a line headed by the entry shows the natural chain unless it says otherwise. Chains listed by the source or under a name are the forms on record and can include a tag or linker. Residues count along the entry.
UniProt Q8I719, whole entry T618Q: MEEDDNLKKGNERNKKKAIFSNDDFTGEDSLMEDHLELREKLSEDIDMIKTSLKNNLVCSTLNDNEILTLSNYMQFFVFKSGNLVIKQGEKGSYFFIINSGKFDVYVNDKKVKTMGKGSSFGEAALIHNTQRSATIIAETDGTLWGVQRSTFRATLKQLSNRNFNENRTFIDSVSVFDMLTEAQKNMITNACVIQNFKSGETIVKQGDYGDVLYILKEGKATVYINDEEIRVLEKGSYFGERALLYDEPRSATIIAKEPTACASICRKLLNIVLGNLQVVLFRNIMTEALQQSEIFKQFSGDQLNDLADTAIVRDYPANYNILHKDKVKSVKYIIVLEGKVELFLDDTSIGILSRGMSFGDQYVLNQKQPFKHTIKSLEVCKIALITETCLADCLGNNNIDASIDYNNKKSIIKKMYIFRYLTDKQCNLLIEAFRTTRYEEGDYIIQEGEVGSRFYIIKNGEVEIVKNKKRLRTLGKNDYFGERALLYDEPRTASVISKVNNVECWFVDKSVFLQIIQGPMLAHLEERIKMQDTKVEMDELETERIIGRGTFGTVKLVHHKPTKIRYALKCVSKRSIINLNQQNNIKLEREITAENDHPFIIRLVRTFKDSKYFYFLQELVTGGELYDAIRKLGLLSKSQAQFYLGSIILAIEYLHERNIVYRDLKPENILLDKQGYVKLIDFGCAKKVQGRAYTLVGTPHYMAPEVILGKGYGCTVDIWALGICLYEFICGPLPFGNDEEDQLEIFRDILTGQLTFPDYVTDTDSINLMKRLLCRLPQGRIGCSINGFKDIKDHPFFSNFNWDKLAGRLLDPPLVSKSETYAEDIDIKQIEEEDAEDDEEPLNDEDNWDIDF
UniProt Q8I719, whole entry: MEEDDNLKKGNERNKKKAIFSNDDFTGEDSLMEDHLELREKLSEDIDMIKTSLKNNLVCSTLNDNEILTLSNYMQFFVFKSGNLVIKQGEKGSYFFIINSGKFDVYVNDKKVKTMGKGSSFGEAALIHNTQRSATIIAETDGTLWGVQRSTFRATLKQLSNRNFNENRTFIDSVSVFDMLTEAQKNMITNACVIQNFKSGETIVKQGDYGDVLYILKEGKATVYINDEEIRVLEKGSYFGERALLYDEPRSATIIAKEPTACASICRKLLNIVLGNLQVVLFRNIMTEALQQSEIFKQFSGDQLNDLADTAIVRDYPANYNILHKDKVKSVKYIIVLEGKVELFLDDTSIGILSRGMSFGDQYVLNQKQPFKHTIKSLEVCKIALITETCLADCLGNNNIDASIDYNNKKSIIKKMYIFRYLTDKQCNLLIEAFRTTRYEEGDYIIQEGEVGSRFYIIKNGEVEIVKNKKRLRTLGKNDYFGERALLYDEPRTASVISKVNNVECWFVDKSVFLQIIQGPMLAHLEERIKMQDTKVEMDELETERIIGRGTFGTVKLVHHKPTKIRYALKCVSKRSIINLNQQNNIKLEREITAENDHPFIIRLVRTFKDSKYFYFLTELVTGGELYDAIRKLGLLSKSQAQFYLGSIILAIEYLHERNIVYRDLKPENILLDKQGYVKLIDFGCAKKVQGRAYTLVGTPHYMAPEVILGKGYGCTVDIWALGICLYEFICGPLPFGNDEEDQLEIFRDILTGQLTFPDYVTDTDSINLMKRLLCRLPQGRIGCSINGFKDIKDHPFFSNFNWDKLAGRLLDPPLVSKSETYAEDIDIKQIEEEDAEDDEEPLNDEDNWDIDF
UniProt P41146, whole entry: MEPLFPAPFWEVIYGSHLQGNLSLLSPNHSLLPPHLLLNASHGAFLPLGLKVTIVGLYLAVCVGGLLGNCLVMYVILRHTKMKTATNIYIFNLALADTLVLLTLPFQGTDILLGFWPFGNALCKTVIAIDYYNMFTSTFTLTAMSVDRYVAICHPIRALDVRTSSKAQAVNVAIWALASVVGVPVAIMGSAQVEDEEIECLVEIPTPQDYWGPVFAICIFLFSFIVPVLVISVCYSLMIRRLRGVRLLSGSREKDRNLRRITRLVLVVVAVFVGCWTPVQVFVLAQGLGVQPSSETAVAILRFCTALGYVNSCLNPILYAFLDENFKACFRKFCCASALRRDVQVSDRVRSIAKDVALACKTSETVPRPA
UniProt Q9VNB5, whole entry: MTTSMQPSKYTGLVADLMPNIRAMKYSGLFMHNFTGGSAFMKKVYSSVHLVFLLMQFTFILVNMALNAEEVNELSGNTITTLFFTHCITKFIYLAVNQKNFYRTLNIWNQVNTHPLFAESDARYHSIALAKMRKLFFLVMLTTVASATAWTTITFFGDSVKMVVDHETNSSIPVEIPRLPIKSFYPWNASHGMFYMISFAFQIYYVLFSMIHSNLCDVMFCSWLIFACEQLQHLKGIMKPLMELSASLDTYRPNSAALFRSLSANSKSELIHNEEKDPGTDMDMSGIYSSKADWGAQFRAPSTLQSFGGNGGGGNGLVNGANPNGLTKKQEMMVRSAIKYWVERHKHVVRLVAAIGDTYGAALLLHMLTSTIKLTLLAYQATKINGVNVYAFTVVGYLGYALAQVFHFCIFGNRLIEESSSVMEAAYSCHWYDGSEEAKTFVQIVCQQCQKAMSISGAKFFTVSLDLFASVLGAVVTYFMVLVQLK
UniProt Q9UGN5, whole entry: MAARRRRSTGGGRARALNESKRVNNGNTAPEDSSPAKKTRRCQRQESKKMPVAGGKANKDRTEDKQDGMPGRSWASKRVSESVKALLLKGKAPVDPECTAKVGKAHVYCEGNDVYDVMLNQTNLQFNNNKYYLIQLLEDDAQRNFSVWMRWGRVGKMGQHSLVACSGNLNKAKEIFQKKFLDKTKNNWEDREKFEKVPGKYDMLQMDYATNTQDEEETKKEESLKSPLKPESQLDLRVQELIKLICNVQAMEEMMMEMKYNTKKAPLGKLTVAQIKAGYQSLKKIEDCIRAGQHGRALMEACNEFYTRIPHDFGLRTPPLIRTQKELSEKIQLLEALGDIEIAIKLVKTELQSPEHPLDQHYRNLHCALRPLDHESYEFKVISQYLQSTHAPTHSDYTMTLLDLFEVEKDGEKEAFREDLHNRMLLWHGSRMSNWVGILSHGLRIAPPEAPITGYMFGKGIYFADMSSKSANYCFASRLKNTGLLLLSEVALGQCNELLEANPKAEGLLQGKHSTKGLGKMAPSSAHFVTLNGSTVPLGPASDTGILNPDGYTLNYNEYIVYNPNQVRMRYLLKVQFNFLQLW
UniProt P08510, 1-655 with tags or gaps DEL6-46: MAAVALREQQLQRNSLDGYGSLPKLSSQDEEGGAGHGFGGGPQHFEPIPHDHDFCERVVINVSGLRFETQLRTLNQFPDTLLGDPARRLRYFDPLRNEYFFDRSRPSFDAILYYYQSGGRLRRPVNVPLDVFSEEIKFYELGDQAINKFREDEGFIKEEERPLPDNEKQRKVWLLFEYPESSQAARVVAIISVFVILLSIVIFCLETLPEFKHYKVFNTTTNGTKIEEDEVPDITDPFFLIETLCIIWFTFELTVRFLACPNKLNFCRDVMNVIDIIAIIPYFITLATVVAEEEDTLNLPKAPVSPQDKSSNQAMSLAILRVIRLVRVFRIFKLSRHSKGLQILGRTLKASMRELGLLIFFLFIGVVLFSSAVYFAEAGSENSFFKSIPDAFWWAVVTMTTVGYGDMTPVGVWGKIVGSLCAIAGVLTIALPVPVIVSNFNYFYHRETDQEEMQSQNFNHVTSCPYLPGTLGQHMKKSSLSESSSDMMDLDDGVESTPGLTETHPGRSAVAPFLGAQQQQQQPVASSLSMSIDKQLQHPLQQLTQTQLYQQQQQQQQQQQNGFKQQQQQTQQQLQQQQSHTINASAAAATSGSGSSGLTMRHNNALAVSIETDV
UniProt Q16881, 151-649 limits assumed: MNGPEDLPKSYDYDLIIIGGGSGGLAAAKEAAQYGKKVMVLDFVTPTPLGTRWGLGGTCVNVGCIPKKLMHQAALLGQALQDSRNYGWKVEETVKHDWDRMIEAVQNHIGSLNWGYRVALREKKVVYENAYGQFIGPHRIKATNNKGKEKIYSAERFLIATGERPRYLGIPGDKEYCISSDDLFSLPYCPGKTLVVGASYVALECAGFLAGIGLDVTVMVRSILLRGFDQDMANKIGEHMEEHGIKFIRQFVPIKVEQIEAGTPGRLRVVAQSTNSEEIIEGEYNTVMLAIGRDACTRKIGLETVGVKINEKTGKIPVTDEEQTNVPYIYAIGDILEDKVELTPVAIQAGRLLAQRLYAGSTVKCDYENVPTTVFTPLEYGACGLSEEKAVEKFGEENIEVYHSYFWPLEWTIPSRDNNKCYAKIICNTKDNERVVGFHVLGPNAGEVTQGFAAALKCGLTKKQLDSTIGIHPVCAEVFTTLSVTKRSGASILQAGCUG
UniProt P62873, whole entry partner: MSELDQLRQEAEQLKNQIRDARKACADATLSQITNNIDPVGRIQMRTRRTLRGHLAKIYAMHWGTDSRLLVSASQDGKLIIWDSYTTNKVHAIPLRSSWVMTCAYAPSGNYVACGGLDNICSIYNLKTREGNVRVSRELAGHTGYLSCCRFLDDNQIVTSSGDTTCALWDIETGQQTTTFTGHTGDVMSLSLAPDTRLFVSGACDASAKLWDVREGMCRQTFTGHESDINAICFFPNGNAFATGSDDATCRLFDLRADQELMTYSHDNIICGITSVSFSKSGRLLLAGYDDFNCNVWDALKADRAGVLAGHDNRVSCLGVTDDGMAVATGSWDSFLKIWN
UniProt P32121, whole entry partner: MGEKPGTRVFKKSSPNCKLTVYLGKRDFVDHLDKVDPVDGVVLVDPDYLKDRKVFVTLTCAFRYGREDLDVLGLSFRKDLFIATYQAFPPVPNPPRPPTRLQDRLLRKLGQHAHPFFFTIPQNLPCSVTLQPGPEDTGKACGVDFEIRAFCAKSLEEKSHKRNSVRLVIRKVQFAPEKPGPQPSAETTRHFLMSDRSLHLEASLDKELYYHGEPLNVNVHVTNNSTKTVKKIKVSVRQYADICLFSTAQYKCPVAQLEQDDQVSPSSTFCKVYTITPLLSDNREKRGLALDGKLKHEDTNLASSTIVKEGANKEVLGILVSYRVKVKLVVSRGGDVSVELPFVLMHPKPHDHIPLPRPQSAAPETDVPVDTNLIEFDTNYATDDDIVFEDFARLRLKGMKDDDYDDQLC
UniProt P59768, 2-68 partner limits assumed: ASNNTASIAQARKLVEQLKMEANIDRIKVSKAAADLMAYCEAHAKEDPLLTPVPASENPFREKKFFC
UniProt P63096, 2-354 partner limits assumed: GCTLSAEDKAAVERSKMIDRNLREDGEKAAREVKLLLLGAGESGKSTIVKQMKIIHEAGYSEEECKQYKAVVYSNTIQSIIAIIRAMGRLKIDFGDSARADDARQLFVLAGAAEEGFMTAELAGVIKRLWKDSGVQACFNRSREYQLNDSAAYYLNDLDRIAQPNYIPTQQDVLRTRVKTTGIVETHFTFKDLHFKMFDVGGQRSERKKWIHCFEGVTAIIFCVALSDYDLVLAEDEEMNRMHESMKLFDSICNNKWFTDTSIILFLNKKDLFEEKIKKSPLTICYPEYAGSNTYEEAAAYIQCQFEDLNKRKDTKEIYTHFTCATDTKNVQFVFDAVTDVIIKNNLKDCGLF

CCCN(C)Cc1onc(-c2cccc(Cl)c2)c1-c1ccnc(N[C@@H]2CCN(C(=O)c3ccn(C)n3)C2)n1 gave an inhibition of 6.5 ± 8% (PKG T618Q; kinase activity, inhibitor, IMAP; 10 µM, gatekeeper mutant).
For CC[C@H](C)[C@H](NC(=O)[C@H](C)NC(=O)[C@H](CCC(=O)O)NC(=O)[C@H](CCC(=O)O)NC(=O)[C@H](CC(C)C)NC(=O)[C@H](CCCCN)NC(=O)[C@H](CCCCN)NC(=O)[C@H](CCSC)NC(=O)[C@H](CCC(=O)O)NC(=O)[C@H](Cc1ccc(O)cc1)NC(=O)[C@H](CCC(=O)O)NC(=O)[C@H](CC(C)C)NC(=O)[C@H](CC(=O)O)NC(=O)[C@H](CC(C)C)NC(=O)[C@H](Cc1ccccc1)NC(=O)[C@H](Cc1ccc(O)cc1)NC(=O)[C@@H](NC(=O)[C@H](CC(N)=O)NC(=O)[C@@H](NC(=O)[C@H](CCC(N)=O)NC(=O)[C@H](CC(=O)O)NC(=O)[C@H](CC(C)C)NC(=O)[C@@H](N)CO)[C@@H](C)CC)C(C)C)C(=O)N[C@@H](CCCCN)C(=O)N[C@@H](CCCCN)C(=O)N[C@@H](CC(C)C)C(=O)N[C@@H](CCC(=O)O)C(=O)N[C@@H](CCC(=O)O)C(=O)N[C@@H](CO)C(=O)N[C@@H](Cc1ccc(O)cc1)C(=O)N[C@H](C(=O)N[C@@H](CC(=O)O)C(=O)N[C@@H](CC(C)C)C(=O)N[C@@H](CCCCN)C(=O)N[C@@H](CCC(=O)O)C(=O)N[C@@H](CC(C)C)C(=O)O)[C@@H](C)CC, the IC50 was 291 nM (SARS-CoV-2 Delta pseudovirus; pseudovirus infection, inhibitor, luciferase; Caco-2; 24 h).
For CCc1ccc2c(c1)CCN2C(=O)CSc1nnc(-c2ccncc2)n1C1CC1, the efficacy was 113% (Orco (Drosophila melanogaster, UniProt Q9VNB5); calcium mobilization, agonist; HEK293 expressing Drosophila Orco; reference: VUAA1).
CC#Cc1ccc2c(=O)[nH]nc(Cc3ccc(F)c(C(=O)N4CCN(c5ccc(C#N)cn5)CC4)c3)c2c1 gave a selectivity ratio of roughly 75 fold (Poly [ADP-ribose] polymerase 2 (PARP2, Homo sapiens, UniProt Q9UGN5); PASTA; reference: IC50 PARP2 over IC50 PARP7).
CC[C@H](C)[C@@H]1NC(=O)[C@H](CCCNC(=N)N)NC(=O)[C@@H](N)CSSC[C@@H]2NC(=O)[C@@H]3CSSC[C@@H](C(=O)N[C@H](C(=O)O)C(C)C)NC(=O)[C@H](CCCCN)NC(=O)[C@H](CC(N)=O)NC(=O)[C@H](Cc4ccccc4)NC(=O)[C@H](CCCNC(=N)N)NC(=O)[C@H](CC(N)=O)NC(=O)[C@H](CSSC[C@H](NC(=O)[C@H](CCCCN)NC(=O)[C@H](CCC(N)=O)NC(=O)[C@H](CC(N)=O)NC(=O)[C@@H]4C[C@@H](O)CN4C1=O)C(=O)N[C@@H](Cc1ccccc1)C(=O)N[C@@H](CCC(N)=O)C(=O)N[C@@H](Cc1c[nH]cn1)C(=O)N[C@@H](CC(C)C)C(=O)N[C@@H](CC(=O)O)C(=O)N[C@@H](CC(=O)O)C(=O)N3)NC(=O)[C@H](CCCCN)NC(=O)[C@H](CCCNC(=N)N)NC(=O)[C@H](CO)NC2=O gave a koff of 22 ± 2 s⁻¹ (Sh (Drosophila melanogaster, UniProt P08510, del6-46); potassium current, two-electrode voltage clamp; Xenopus oocytes; external K 100 mM, zero voltage).
Cc1ccc(S(=O)(=O)Nc2cccc(C(=O)NC3CCN(c4ncnc5[nH]cnc45)CC3)c2)cc1 has an inhibition of 17.1% (Replicase polyprotein 1ab, nsp14 ExoN with nsp10 (rep, Severe acute respiratory syndrome coronavirus 2, UniProt P0DTD1); ExoN activity; 0.01221 µM).
CS(=O)(=O)Cc1onc(-c2cccc(Cl)c2)c1-c1ccnc(N[C@@H]2CCN(C(=O)c3nccs3)C2)n1 has an inhibition of 102% (cGMP-dependent protein kinase (PKG, Plasmodium falciparum, UniProt Q8I719); kinase activity, inhibitor, IMAP; 10 µM).
With CNC(=O)CC1C(=O)N(C2CCN([C@H]3CC[C@@H](C(C)C)CC3)CC2)c2ccccc21 (stereo partly shown) the concentration ratio was 1.2 (OPRL1; G protein activation, GTPγS binding; CHO membranes; reference: compound over N/OFQ EC50).
With CCN(CC)Cc1onc(-c2cccc(Cl)c2)c1-c1ccnc(N[C@@H]2CCN(C(=O)c3ccn(C)n3)C2)n1 the inhibition was 36 ± 5% (PKG T618Q; kinase activity, inhibitor, IMAP; 10 µM, gatekeeper mutant).
CC(C)[C@H]1CC[C@@H](N2CCC3(CC2)C(=O)NCN3c2ccccc2)CC1 has an intrinsic activity of 0.93 (OPRL1; G protein interaction, BRET; HEK293 membranes; concentration not given, unit not given; reference: compound Emax over N/OFQ Emax).
With CC[C@H](C)[C@H](NC(=O)[C@H](C)NC(=O)[C@H](CCC(=O)O)NC(=O)[C@H](CCC(=O)O)NC(=O)[C@H](CC(C)C)NC(=O)[C@H](CCCCN)NC(=O)[C@H](CCCCN)NC(=O)[C@H](CCSC)NC(=O)[C@H](CCC(=O)O)NC(=O)[C@H](Cc1ccc(O)cc1)NC(=O)[C@H](CCC(=O)O)NC(=O)[C@H](CC(C)C)NC(=O)[C@H](CC(=O)O)NC(=O)[C@H](CC(C)C)NC(=O)[C@H](Cc1ccccc1)NC(=O)[C@@H](NC(=O)[C@@H](NC(=O)[C@H](CC(N)=O)NC(=O)[C@@H](NC(=O)[C@H](CCC(N)=O)NC(=O)[C@H](CC(=O)O)NC(=O)[C@H](CC(C)C)NC(=O)[C@H](CO)NC(=O)[C@H](CC(C)C)NC(=O)[C@H](CC(=O)O)NC(=O)[C@@H]1CCCN1C(=O)[C@H](C)N)[C@@H](C)CC)C(C)C)[C@@H](C)O)C(=O)N[C@@H](CCCCN)C(=O)N[C@@H](CCCCN)C(=O)N[C@@H](CC(C)C)C(=O)N[C@@H](CCC(=O)O)C(=O)N[C@@H](CCC(=O)O)C(=O)N[C@@H](CO)C(=O)N[C@@H](Cc1ccc(O)cc1)C(=O)N[C@H](C(=O)N[C@@H](CC(=O)O)C(=O)N[C@@H](CC(C)C)C(=O)N[C@@H](CCCCN)C(=O)N[C@@H](CCC(=O)O)C(=O)N[C@@H](CC(C)C)C(=O)O)[C@@H](C)CC the IC50 was 66.5 nM (SARS-CoV-2 XBB.1.5 pseudovirus; pseudovirus infection, inhibitor, luciferase; Caco-2; 24 h).
O=C1Cc2ccccc2N1C1CCN([C@@H]2CC[C@H]3CCCc4cccc2c43)CC1 has an intrinsic activity of 0.87 ± 0.08 (OPRL1; β-arrestin recruitment, BRET; HEK293; concentration not given, unit not given, with: β-arrestin 2; reference: N/OFQ maximal effect).
With CC(=O)Oc1ccc(CON2C(=O)CCC2=O)cc1 the kinact was 0.00078 ± 9e-05 s⁻¹ (Thioredoxin reductase 1, cytoplasmic (TXNRD1, Homo sapiens, UniProt Q16881); enzyme activity, inhibitor, DTNB reduction, two-step kinetics).

Excerpt of the above:
With CNC(=O)CC1C(=O)N(C2CCN([C@H]3CC[C@@H](C(C)C)CC3)CC2)c2ccccc21 (stereo partly shown) the concentration ratio was 1.2 (OPRL1; G protein activation, GTPγS binding; CHO membranes; reference: compound over N/OFQ EC50).
